Measurements gathered from unrelated publications.
Numbered parts are unrelated; each lists some results of a single study. Substitutions count along the parent as printed.

Series 1
Target: Serine/threonine-protein kinase MARK1 (MARK1, Homo sapiens, UniProt Q9P0L2)
UniProt Q9P0L2, sequence (whole entry, looked up): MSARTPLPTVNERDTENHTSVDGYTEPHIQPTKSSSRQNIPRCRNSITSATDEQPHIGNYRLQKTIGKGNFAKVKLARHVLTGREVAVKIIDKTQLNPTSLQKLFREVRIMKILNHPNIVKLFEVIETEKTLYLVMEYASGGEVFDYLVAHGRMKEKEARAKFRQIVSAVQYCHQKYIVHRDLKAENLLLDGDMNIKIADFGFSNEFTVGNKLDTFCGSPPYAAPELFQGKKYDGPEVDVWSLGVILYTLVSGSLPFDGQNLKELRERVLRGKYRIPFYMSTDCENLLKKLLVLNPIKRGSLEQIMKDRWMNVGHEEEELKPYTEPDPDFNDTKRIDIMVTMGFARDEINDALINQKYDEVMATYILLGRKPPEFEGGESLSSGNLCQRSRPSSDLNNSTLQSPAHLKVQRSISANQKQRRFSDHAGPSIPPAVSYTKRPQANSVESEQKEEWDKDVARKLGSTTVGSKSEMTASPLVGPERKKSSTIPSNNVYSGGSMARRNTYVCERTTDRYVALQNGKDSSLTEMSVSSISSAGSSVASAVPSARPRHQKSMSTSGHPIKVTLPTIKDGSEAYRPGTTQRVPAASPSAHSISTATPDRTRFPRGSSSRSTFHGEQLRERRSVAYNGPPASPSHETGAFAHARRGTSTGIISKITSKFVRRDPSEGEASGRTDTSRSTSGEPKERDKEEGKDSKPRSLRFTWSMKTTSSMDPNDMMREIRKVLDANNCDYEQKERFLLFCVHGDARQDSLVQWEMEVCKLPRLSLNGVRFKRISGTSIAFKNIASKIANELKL
Observed: enzyme activity
Action: inhibitor
Tested at: 0.5 µM
Relative to: control
| Compound | remaining activity [%] |
| --- | --- |
| Nc1ncnc2n[nH]c(Nc3ccc(F)cc3)c12 | 93.8 |
| O=C1NC(=O)C(c2cn(CCCO)c3ncccc23)=C1c1cnccn1 | 95 |
| NCCNc1ncc(C(N)=O)c(Nc2cccc(C(F)(F)F)c2)n1 | 86.4 |
| Cn1sc(=O)n(Cc2ccccc2)c1=O | 107 |
| O=C1NC(=O)C(c2cn(CCCn3ccnc3)c3ccccc23)=C1Nc1ccccc1 | 93.6 |
| O=S(=O)(c1cccc2cnccc12)N1CCCNCC1 | 98.6 |
| COc1cc2ncnc(Nc3ccc(Oc4ccccc4)cc3)c2cc1OC | 93.3 |
| N#CC(C#N)=C(N)/C(C#N)=C/c1ccc(O)cc1 | 111 |
| COc1ccc(C(=O)Nc2sc3c(c2C(N)=O)CCCC3)cc1OC | 97.9 |
| O=c1c2ccccc2[nH]c(=S)n1CCN1CCC(=C(c2ccc(F)cc2)c2ccc(F)cc2)CC1 | 99.7 |
| Cc1cccc(-c2[nH]c(C(C)(C)C)nc2-c2ccc3c(c2)OCO3)n1 | 85.1 |
| CCOC(=O)c1c(C)[nH]c(/C=C2\C(=O)Nc3ccccc32)c1C | 90.8 |
| Nc1ccc2ncnc(NCCc3ccc(Oc4ccccc4)cc3)c2c1 | 103 |
| Oc1ccc(-c2nc(-c3ccncc3)c(-c3ccc(F)cc3)[nH]2)cc1 | 101 |

Series 2
Target: RNA binding protein fox-1 homolog 2, RRM domain, GST-SBP tag (RBFOX2, Homo sapiens, UniProt O43251-10, residues 100-194)
Method: RNA Bind-n-Seq
Molecule type: RNA
Medium: in vitro
Tested at: 365 nM
Setting: natural RNA segment, single round, ends assumed
Relative to: no-protein control
Direction: higher = stronger binding
Construct (chain): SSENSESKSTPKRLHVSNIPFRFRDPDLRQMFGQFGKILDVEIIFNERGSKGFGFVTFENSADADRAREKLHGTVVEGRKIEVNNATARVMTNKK
| Sequence | RBNS enrichment (R) |
| --- | --- |
| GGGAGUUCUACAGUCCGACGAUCCGGGACAGAUGGACAGACAGCCACCCUGAGAACCCCUCUGGGAAAAUCUAUUCCUGCCACCACUGGGCAAACAGAAGAAUUUUUCUGUCUUUGGAGAGUAUUUUAGAAACUGGAAUUCUCGGGUGCCAA | 0.485 |
| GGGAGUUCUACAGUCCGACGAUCAGAGCGUGUGCAUAGGUGGUCUCUGACCUGAACAUCACAGUGCGGAGAAAGCCCGGCUGGAAACACCCUCGCCCCCAGCCUACGGGUCCCCGAAAUGGGGUCCUCUCACCUGGAAUUCUCGGGUGCCAA | 0.165 |
| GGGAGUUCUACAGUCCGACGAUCUGCCGCGCAACACAUCUCUCUGAGGCUGGCAAGCCUCGCCCCUCGCAGUGACGUCCUCCCACGCCUGGCGGCCGUAGUGGCUGUGCUCCGGGCAGCAUCGGGCUUCAUAGUGGAAUUCUCGGGUGCCAA | 0.31 |
| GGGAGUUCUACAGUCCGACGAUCGGGGAUUAGAUGCUCCUGCAUUUGUGAAAUGGUUAUAAGCAUAGAAAAAUAGGUGGUAAGCUUUCCUUCUUUCCUUAUUUUGUGUGAUGCCUUAAACUGAAAAGUUAAAAUGGAAUUCUCGGGUGCCAA | 0.515 |
| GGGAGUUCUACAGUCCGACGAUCCUUGCUGCAUGAUGGUCAGUAGCUGAUCUGUUAUGGCAUUCACUUCCAGAUUAAUUUUCCGUGUUUGAAGUAUGUGCAUAUGUGCUUUACAGAAUAAAACAUCUGAAUUUUGGAAUUCUCGGGUGCCAA | 2.1 |
| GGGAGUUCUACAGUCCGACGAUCUAACUAAUGUUAUUUUUUAAAACCUGGACCUUUUCUGGAAGGGCAGCAUAUAAAAACAUCAGUCCCGAGGAGGGGACAACAAUACUACCUCACUACUACAUCUGUGAUGAUGGAAUUCUCGGGUGCCAA | 0.271 |
| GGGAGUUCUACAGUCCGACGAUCUCUCCUAAGUACUUAUUCAUGCCUCUGAUGUGCCUUGUAUCUGAAUCCAGGAUGGCAGAGAUCCCCUGUCCCUGGAAGGUGUCAUAUAUUACUAGCUAGUAUUAGGUUGAUGGAAUUCUCGGGUGCCAA | 0.547 |
| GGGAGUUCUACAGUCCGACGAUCCUCAGAGAACCCGUCCAGGGAGAUUUGAAGCCAUGGGUUAUCUUCUAGAGUUGAUACUGAUAAUAUAUUUUAAUUUUUAUUGAUGUUUAAUACCUUCUGAAACAGGAGGGUGGAAUUCUCGGGUGCCAA | 0.374 |

Series 3
Target: ABI1, truncated, D143A, DHFR fusion (Arabidopsis thaliana)
Method: DHFR PCA, deep sequencing
Medium: yeast
Setting: methotrexate growth selection, single substitutions
Together with: (+)-ABA 0.11 µM
Relative to: wild-type fitted maximum
Direction: higher = stronger binding
Starting sequence: PYL1, truncated, DHFR fusion (Arabidopsis thaliana); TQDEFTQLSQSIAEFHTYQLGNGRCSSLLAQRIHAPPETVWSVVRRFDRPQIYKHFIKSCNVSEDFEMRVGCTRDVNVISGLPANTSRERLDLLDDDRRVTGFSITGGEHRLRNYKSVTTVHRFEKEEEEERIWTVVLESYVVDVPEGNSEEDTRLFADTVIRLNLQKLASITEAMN; partner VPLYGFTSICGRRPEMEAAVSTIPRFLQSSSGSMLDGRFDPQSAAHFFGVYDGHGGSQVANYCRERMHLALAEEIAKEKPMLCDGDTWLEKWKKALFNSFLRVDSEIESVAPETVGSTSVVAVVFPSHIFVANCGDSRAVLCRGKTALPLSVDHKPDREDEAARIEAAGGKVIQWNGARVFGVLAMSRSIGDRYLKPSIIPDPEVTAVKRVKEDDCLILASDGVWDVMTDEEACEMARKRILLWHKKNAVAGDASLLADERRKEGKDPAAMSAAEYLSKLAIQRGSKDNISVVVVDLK
| Substitution | relative binding score |
| --- | --- |
| A84I | 32.6% |
| E14I | 0.0488% |
| C72Q | 42.5% |
| T39Q | 17.8% |
| S150V | 6.94% |
| Q51A | 31.6% |
| K54M | 0.806% |
| E14L | 3% |

Further values, each from its own experiment
| Structure (SMILES) | target or system | test | system | setting | how to read | endpoint | value |
| --- | --- | --- | --- | --- | --- | --- | --- |
| CCOC(=O)c1ncn2c1CN(C)C(=O)c1cc(F)ccc1-2 | A-375 | – | – | 100 µM, 36 h | – | viability | 99.1% |
| CC(C)(C)c1cc(NC(=O)Nc2ccc(-c3cn4c(n3)sc3cc(OCCN5CCOCC5)ccc34)cc2)no1 | – | AlphaScreen signal, AlphaScreen counter screen | His6 peptide without bromodomain | 50 µM, assay interference check | – | inhibition | 61.6% |
| C[C@H]1COc2c(N3CCN(C)CC3)c(F)cc3c(=O)c(C(=O)O)cn1c23 | A-375 | – | – | 100 µM, 36 h | – | viability | 105% |
| O=C(O)CC1CC(c2ccccc2)=NO1 (centres unmarked) | mouse MPNST tumor cells | high-content immunofluorescence imaging, item: nuclear SOX9 | – | 10 µM, 12 h, mean of 2 replicates | relative to: DMSO control, higher = more nuclear SOX9 | nuclear SOX9 intensity | 96.9 % of DMSO |
| CCOC(=O)C1=C(C)NN=C(Nc2cccc(C)c2C)S1 | – | AlphaScreen signal, AlphaScreen counter screen | His6 peptide without bromodomain | 50 µM, assay interference check | – | inhibition | 29.6% |

For quick reference, copied from above (series 3):
| Substitution | relative binding score |
| --- | --- |
| E14I | 0.0488% |
| C72Q | 42.5% |
| T39Q | 17.8% |
| S150V | 6.94% |
